Published values gathered from unrelated publications.
Numbered parts are unrelated; each lists some results of a single study. Changes are numbered by the printed parent chain.

Set 1 — technique: RNA Bind-n-Seq; form: RNA; sample: in vitro; tested at: 200 nM; notes: whole 134-nt RNA, ends assumed; with: 150 mM LiCl; baseline: input library; direction: higher = stronger binding; all molecules: 7-deaza-guanosine replaces G
Target: Ras GTPase-activating protein-binding protein 1, full length (G3BP1, Homo sapiens, UniProt Q13283)
UniProt Q13283, sequence (whole entry, looked up): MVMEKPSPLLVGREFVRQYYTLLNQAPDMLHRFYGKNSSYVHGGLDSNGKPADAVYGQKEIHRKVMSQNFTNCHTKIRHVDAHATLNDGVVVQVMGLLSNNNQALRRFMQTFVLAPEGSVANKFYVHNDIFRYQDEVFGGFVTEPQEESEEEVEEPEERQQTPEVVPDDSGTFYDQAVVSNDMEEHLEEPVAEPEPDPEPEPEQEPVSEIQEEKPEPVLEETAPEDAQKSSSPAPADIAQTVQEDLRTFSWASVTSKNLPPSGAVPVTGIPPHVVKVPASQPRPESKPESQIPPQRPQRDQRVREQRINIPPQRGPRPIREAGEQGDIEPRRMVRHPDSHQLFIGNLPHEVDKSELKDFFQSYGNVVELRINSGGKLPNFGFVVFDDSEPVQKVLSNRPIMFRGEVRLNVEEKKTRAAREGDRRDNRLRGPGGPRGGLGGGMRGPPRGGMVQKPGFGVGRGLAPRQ
All sequences stand within: GGGAGUUCUACAGUCCGACGAUC … UGGAAUUCUCGGGUGUCAAGG
`UAACUUUAGAGGAGGAUCUGAUGGUUAUGGCAGUGGACGUGGAUUUGGGGAUGGCUAUAAUGGGUAUGGAGGAGGACCUGGAGGUGGCAA` has a log2 enrichment of -0.0958.
`AGUCCUGUGCUACACAUCGUAUGUACCGAAUCGGUUUUUUUGGAAAAAGGUUUUUGGAAAGUAUUAUGUUACGCCGUUCGGAUCUGCACU` has a log2 enrichment of -3.09.
`AAGUCCUGUGCUACACAUCGUAUGUACCGAAUCGGGCCCCGGCCCCGGGCCCCGGGAAAGUAUUAUGUUACGCCGUUCGGAUCUGCACUU` has a log2 enrichment of -2.03.
With `GUCCUGUGCUACACAUCGUAUGUACCGAAUCAAAUUUUUUUAAAUUUAAAUUUUUAAAAAAGUAUUAUGUUACGCCGUUCGGAUCUGCAC` the log2 enrichment was -2.86.
`UUUACCCCUCACUGGAGUCAGAUGAAGACAACCCCAUCUUUAAGUCCCGGUCGAAGAAAAGGAAAGGCUCAGACGACGCUCCCUACAGCC` has a log2 enrichment of -1.08.

Set 2 — target: CCNA2, cyclin fold, Cln2 fusion (human); technique: yeast growth competition, sequencing; sample: yeast; notes: strong parent motif; baseline: not given; direction: higher = stronger binding
Parent: ORC1 docking peptide (human); PRARKRLELGNLG
Under “normalised enrichment score”, `P1M` is recorded as 3.94.
For `L12M`, “normalised enrichment score” read 5.8.
`K5V`: “normalised enrichment score” 1.5.
Under “normalised enrichment score”, `K5A` is recorded as 1.37.

Set 3 — technique: RNA Bind-n-Seq; form: RNA; sample: in vitro; tested at: 365 nM; baseline: no-protein control; direction: higher = stronger binding
Target: RNA binding protein fox-1 homolog 2, RRM domain, GST-SBP tag (RBFOX2, Homo sapiens, UniProt O43251-10, residues 100-194)
Notes: natural RNA segment, single round, ends assumed
For `GGGAGUUCUACAGUCCGACGAUCCUUGCCCAUUCACUUCAGUCUGCAGAAAGCCUCUUCCCUGGGUUGUCAGCCAGAAAAAAGGAGAGGUCAAAGGUCUGUUCUUCCUGCUACACAGGGUCUGGUUUUAAAAGUGGAAUUCUCGGGUGCCAA`, “RBNS enrichment (R)” read 0.407.
For `GGGAGUUCUACAGUCCGACGAUCCGCUGUCCAAGAAGUGGCUCCCCAAAGUAUAAGUGCGGGUGAGGUUUACUGAUACCCCACAGUGGAAGGCAUUUCUUCCAGAUAUUUUCCAGAUACCUUGGCCGCCAAACUGGAAUUCUCGGGUGCCAA`, “RBNS enrichment (R)” read 0.544.
Under “RBNS enrichment (R)”, `GGGAGUUCUACAGUCCGACGAUCCUGAGGAAUCCCAGAAGCAACCAGAGACCAUCAUAAAUGUCAAAUACCGGAGUCUACCCUGCUUCACCAUCUCCCACCCUUAUACUGUCUCUGAUGAGUUAUGCUAAGUUUGGAAUUCUCGGGUGCCAA` is recorded as 0.652.
For `GGGAGUUCUACAGUCCGACGAUCGAGUCUAGCCUGGGAGCCAGGAUACUGGGGUCCUUUUCCCACUCUUCCACUGACUUGCUGUGUGACCUUAGGAAGUCUCUGCCCCUCUCUCAGCCUCAGUGUCCCGAGGGUGGAAUUCUCGGGUGCCAA`, “RBNS enrichment (R)” read 0.516.

Other studies, line by line
The fold induction of `PhoQ, residues 284 288 289 292 302 303 SSCLAV` is reported as 12.9 (PhoP, residues 12 14 15 18 19 GQAIL (Escherichia coli, UniProt P23836); Sort-seq, item: YFP reporter; E. coli; PhoQ-PhoP variant library, with: 10 µM Mg2+; baseline: high Mg2+ state, higher = stronger signaling).

Some of these lines once more (other studies, line by line):
The fold induction of `PhoQ, residues 284 288 289 292 302 303 SSCLAV` is reported as 12.9 (PhoP, residues 12 14 15 18 19 GQAIL (Escherichia coli, UniProt P23836); Sort-seq, item: YFP reporter; E. coli; PhoQ-PhoP variant library, with: 10 µM Mg2+; baseline: high Mg2+ state, higher = stronger signaling).
